Assay results pooled from the literature.
Protocols differ between the studies behind these lines.
Target: Mitogen-activated protein kinase kinase kinase kinase 1 (MAP4K1, Homo sapiens, UniProt Q92918)

SMILES | assay | test system | setting | scale | measurement | value
CCN1CCN(Cc2ccc(C(=O)Nc3ccc(C)c(NCc4cnc5[nH]ccc5c4OC)c3)cc2C(F)(F)F)CC1 | binding, competition with immobilised ligand | – | 1 µM | – | remaining binding | 2.8%
CCN1CCN(Cc2ccc(NC(=O)c3ccc(C)c(NC(=O)c4cncc(-c5cccs5)c4)c3)cc2C(F)(F)F)CC1 | binding, competition with immobilised ligand | – | 1 µM | – | remaining binding | 7.6%
COc1ccc(O)cc1-c1c[nH]c2ncc(-c3cncc(C(=O)N(C)C)c3)cc12 | binding, competition with immobilised ligand | – | 0.2 µM | – | inhibition | 43.2%
CS(=O)(=O)Nc1cccc(-c2csc3cnc(Nc4ccc(N5CCN(CCCCCOc6cccc7c6C(=O)N(C6CCC(=O)NC6=O)C7=O)CC5)cc4)nc23)c1 (stereo not shown) | probe labelling, inhibitor, KiNativ chemoproteomics | MOLT-4 | 1 µM | – | inhibition | 61.6%
NC(=O)C[C@H]1CCc2sc3ncnc(O[C@H]4CC[C@H](N5CCOCC5)CC4)c3c21 | enzyme activity, inhibitor | – | 10 µM | – | inhibition | 8%
COc1cc(Nc2nccc(-c3cnn4nc(OC)ccc34)n2)cc(C(F)(F)F)c1 | binding, competition with immobilised ligand | – | 1 µM | – | remaining binding | 88%
C=CC(=O)N1Cc2nc(-c3cc(-c4cc(Cl)cnc4Cl)c(F)cc3F)n(-c3ccncn3)c2C1 | cell-free assay, inhibitor | – | 1 µM | – | inhibition | 8.2%
CN1CCN(Cc2ccc(-c3ccc(CO[C@H]4CCC[C@@H]4NC(=O)c4cc(-c5cnn(C)c5)cnc4N)cc3)cc2)CC1 | enzyme activity, inhibitor | – | 0.1 µM | – | inhibition | 13%
CNC1C[S+]2CC[S+]3CC[S+](C1)[Ru-4]321([N]=C=S)[n]2c3ccc(OC)cc3c3c4c(c5cc(F)c[n+]1c5c32)C(=O)NC4=O (stereo not shown) | KinomeScan | – | 0.1 µM | baseline: untreated | remaining binding | 94%
CCn1cc(C(=O)O)c(=O)c2c(N)c(F)c(NC3CCCCC3)cc21 | kinase activity | – | 0.1 µM, added: ATP at Km | – | inhibition | -0.6%
Cc1cnc2nc1Nc1cccc(c1)COC/C=C/COCc1cc(ccc1OCCN1CCOCC1)N2 | binding, competition with immobilised ligand | – | 0.1 µM | – | remaining binding | 100%
CC(C)=CC1OC(C)(C)C2C=C3C(=O)C(Cl)=CC(O)C3C3C(O)C4OC4C(=O)C132 (stereo not shown) | cell-free assay, competition with immobilised ligand | – | 10 µM | – | remaining binding | 79%
Nc1ncc(-c2cc(-c3cnn(CC(F)(F)F)c3)ncc2F)nc1C(=O)NC1CNCC(F)C1 (stereo not shown) | enzyme activity | – | 1 µM | baseline: DMSO control | remaining activity | 80.8%
